Assay results pooled from the literature.
Parts stem from different laboratories: compare values within a part only.

Series 1
Target: RING finger protein unkempt homolog, zinc fingers 1-6, GST-SBP tag (UNK, Homo sapiens, UniProt Q9C0B0, residues 30-357)
Technique: RNA Bind-n-Seq
Molecule type: RNA
Matrix: in vitro
Tested at: not given
Setting: RNA with constant flanks, ends assumed
Reference: input RNA pool
Direction: higher = stronger binding
Measurement: bound/input enrichment
Residues (chain): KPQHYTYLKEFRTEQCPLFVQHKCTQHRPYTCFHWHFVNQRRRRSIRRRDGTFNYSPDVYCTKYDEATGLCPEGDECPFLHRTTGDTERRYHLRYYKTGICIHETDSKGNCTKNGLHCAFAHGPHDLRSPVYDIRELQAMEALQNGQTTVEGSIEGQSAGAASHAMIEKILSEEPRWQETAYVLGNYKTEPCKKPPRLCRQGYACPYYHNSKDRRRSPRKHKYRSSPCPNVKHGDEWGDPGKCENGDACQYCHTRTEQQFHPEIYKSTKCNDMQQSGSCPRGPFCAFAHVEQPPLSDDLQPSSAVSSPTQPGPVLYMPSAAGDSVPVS
Strand = GGGAGUUCUACAGUCCGACGAUCAGUUCAGAGUCCGGAGCUGCGGUGGUGGCGGCGAAGGCGAGAGUCAUGGCUGGACAAGCUUUCCGGAAGUUUCUUCCGCUCUUUGACAGAGUAUUGGUUGAAAGGAGUGCUGCCGAAACUCAACAGAGGAUUGAGCAUCA; result = 0.0984 ratio
Strand = GGGAGUUCUACAGUCCGACGAUCCCGUUUCUAGUAUAUUCCUGUAAAUGUCAGUUACUGAAAAUGAGUCCAUUGUAAGCCGUUCCGCUUGUUUUUUGCAAUGCCGGCCUCAACACCACAGAGUAAAAAAAAAAAAAAAACGGUCAACAGAGGAUUGAGCAUCA; result = 0.903 ratio
Strand = GGGAGUUCUACAGUCCGACGAUCUUGGAUGUGACAGUGCAGUCCUUUGGAUGGUCCGAUAGAGCAAAGGCAAAAACAGAUAACACCGCAAGAAUUUACCAGCCCAAGCGUUAUGCUCUGUCGCCCAAGACAACAGUCACAUUGCAACAGAGGAUUGAGCAUCA; result = 0.0703 ratio

Series 2
Target: Interferon regulatory factor 7, full length, phosphomimetic (IRF7, Homo sapiens, UniProt Q92985, residues 1-503, S471D/S472D/S475D/S476D/S477D/S483D/S484D/S487D)
Technique: protein-binding microarray
Molecule type: double-stranded DNA, one strand shown
Matrix: in vitro
Tested at: 2200 nM top
Setting: 60-bp whole probe
Added: salmon DNA 0.4 mg/ml
Reference: random background probes
Direction: higher = stronger binding
Measurement: fitted relative affinity
Target sequence (chain): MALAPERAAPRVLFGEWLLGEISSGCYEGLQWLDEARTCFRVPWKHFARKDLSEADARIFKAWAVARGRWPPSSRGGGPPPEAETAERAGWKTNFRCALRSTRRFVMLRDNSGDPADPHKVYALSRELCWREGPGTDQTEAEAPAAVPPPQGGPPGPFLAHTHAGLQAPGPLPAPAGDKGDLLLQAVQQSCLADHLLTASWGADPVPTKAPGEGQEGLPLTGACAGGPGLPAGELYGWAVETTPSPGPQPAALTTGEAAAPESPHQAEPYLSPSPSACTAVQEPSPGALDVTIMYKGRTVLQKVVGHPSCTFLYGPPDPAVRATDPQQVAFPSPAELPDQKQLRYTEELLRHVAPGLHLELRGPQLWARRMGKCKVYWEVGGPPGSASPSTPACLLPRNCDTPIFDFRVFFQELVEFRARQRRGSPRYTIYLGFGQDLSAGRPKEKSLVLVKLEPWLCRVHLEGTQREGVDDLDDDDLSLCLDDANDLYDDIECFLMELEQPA
Strand = GCCTAGCACTTACGTATCCTTTTCCTTTAGTGCTAGGTCTTGATTCGCTTGACGCTGCTG; result = 3.4 z-score
Strand = GCCTAGCACGAAGAACTGGGGTATCGAGACGTGCTAGTCTTGATTCGCTTGACGCTGCTG; result = -0.33 z-score
Strand = GCCTAGCACTCACGTTACTTCCTCAAACTGTGCTAGGTCTTGATTCGCTTGACGCTGCTG; result = 2.11 z-score
Strand = GCCTAGCACTATTTTTACATTATTACCTCGTGCTAGGTCTTGATTCGCTTGACGCTGCTG; result = 1.85 z-score

Series 3
Target: RNA binding protein fox-1 homolog 2, RRM domain, GST-SBP tag (RBFOX2, Homo sapiens, UniProt O43251-10, residues 100-194)
Technique: RNA Bind-n-Seq
Molecule type: RNA
Matrix: in vitro
Tested at: 365 nM
Setting: natural RNA segment, single round, ends assumed
Reference: no-protein control
Direction: higher = stronger binding
Measurement: RBNS enrichment (R)
Construct (chain): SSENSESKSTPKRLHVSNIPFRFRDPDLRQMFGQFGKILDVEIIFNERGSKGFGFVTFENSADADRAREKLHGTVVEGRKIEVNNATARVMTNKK
Strand = GGGAGUUCUACAGUCCGACGAUCUACUUGAGCUUUUGUGAUUCAAAGUUCAGGGGUGGUAAGGACUCUGGUACCAGGGAAGAGGGAGAAUUAAUUUAUUGUGCAAAUGCUGGUAUUUCUUACAUGAUUUUUUGUGGAAUUCUCGGGUGCCAA; result = 0.721
Strand = GGGAGUUCUACAGUCCGACGAUCGUGGGUCUUAUGUGUGUCUGUGUCUUCUCCUUAAACACUCGCCCUGGAGUCUGUUCUCACACCUGUGCGCAGGUUUGCACACUCAAGUUCUCAUGGGCAGGCUCAGGUCUUGGAAUUCUCGGGUGCCAA; result = 0.369
Strand = GGGAGUUCUACAGUCCGACGAUCGGAAAUAGAACCUAAACACAUGCCCAGAAGUCCUGGUUCAAAAGCUUUACUAUGGAGCCUGCAUAUGAAGCCACCUCUGGCUUCUACAGAAGGAGGCCCUGGCUGCUCCAUGGAAUUCUCGGGUGCCAA; result = 0.236
Strand = GGGAGUUCUACAGUCCGACGAUCGUUUUAAUGUGGUGAGCAGCCUAAGAACUUAAAGGUGUACGGUAUUUUGUUUAUAAAGAUGUUCAGAUUUCUUAGUAACUGUAUUAAAUGGUUAAUUAAAACUGUGAAUUUGGAAUUCUCGGGUGCCAA; result = 0.863

Mixed results
Molecule = PhoQ, residues 284 288 289 292 302 303 GASLAW; target = PhoP, residues 12 14 15 18 19 VQGLL (Escherichia coli, UniProt P23836); assay = Sort-seq, item: YFP reporter; system = E. coli; setting = PhoQ-PhoP variant library, added: 10 µM Mg2+; scale = reference: high Mg2+ state, higher = stronger signaling; measurement = fold induction; result = 17.5

Some of these lines once more (series 2):
Strand = GCCTAGCACTTACGTATCCTTTTCCTTTAGTGCTAGGTCTTGATTCGCTTGACGCTGCTG; result = 3.4 z-score
Strand = GCCTAGCACGAAGAACTGGGGTATCGAGACGTGCTAGTCTTGATTCGCTTGACGCTGCTG; result = -0.33 z-score
